Literature values that unrelated publications cite.
Numbered parts are unrelated; values within a part may stem from several laboratories.
UniProt Q8HXS3, sequence (whole entry, looked up): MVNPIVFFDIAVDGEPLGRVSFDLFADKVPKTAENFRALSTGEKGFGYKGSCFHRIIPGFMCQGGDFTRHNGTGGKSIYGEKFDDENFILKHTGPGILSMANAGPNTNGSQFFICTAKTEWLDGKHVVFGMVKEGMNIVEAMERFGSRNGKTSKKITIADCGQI

Block 1 — Substance: melittin
It gave < 3.1 µM for MIC (Bacillus subtilis; KCTC 3068; literature value).
Acinetobacter baumannii; ATCC 19606; literature value — MIC: < 3.1 µM.
It gave < 3.1 µM for MIC (Enterobacter sp.; KCTC 2625).

Further values, each from its own experiment
B1: CCL4; sequence looked up; chain APMGSDPPTACCFSYTARKLPRNFVVDYYETSSLCSQPAVVFQTKRSKQVCADPSESWVQEYVYDLELN
B2: CX3CL1, human; sequence looked up; chain QHHGVTKCNITCSKMTSKIPVALLIHYQQNQASCGKRAIILETRQHRLFCADPKEQWVKDAMQHLDRQAAALTRNGGTFEKQIGEVKPRTTPAAGGMDESVVLEPEATGESSSLEPTPSSQEAQRALGTSPELPTGVTGSSGTRLPPTPKAQDGGPVGTELFRVPPVSTAATWQSSAPHQPGPSLWAEAKTSEAPSTQDPSTQASTASSPAPEENAPSEGQRVWGQGQSPRPENSLEREEMGPVPAHTDAFQDWGPGSMAHVSVVPVSSEGTPSREPVASGSWTPKAEEPIHATMDPQRLGVLITPVPDAQAATRRQAVGLLAFLGLLFCLGVAMFTYQSLQGCPRKMAGEMAEGLRYIPRSCGSNSYVLVPV
`B1 (CCL4)` has a Kd of 1.9 nM (US28 D15A; binding, radioligand competition).
`capsid protein (Feline immunodeficiency virus, UniProt P16087)` has a Kd of 6200 nM (PPIA (Felis catus, UniProt Q8HXS3); ITC).
With `CCL3` the Kd was 3 nM (US28 T11A; binding, radioligand competition).
`AEQNPIYWARYADWLFTTPLLLLDLALLVDADEGT (pHLIP (Halobacterium salinarum))` has a pKa of 6.3 (NMR, item: Asp33; peptide, lipid membrane; numbering of the source).
`CCL5` has a Kd of 2.3 nM (US28 T12A; binding, radioligand competition).
`B2 (CX3CL1, human)` has a Kd of 0.5 nM (US28 wild type; binding, radioligand competition).

For quick reference, copied from above (further values, each from its own experiment):
`B1 (CCL4)` has a Kd of 1.9 nM (US28 D15A; binding, radioligand competition).
